Measurements pooled from the literature.
Each numbered part is a random draw from the data of one study; scales do not carry over between parts. “And” joins repeats or separate records; there may be more than shown.
Chain of UniProt Q5XXA6 (whole entry, unmodified, looked up): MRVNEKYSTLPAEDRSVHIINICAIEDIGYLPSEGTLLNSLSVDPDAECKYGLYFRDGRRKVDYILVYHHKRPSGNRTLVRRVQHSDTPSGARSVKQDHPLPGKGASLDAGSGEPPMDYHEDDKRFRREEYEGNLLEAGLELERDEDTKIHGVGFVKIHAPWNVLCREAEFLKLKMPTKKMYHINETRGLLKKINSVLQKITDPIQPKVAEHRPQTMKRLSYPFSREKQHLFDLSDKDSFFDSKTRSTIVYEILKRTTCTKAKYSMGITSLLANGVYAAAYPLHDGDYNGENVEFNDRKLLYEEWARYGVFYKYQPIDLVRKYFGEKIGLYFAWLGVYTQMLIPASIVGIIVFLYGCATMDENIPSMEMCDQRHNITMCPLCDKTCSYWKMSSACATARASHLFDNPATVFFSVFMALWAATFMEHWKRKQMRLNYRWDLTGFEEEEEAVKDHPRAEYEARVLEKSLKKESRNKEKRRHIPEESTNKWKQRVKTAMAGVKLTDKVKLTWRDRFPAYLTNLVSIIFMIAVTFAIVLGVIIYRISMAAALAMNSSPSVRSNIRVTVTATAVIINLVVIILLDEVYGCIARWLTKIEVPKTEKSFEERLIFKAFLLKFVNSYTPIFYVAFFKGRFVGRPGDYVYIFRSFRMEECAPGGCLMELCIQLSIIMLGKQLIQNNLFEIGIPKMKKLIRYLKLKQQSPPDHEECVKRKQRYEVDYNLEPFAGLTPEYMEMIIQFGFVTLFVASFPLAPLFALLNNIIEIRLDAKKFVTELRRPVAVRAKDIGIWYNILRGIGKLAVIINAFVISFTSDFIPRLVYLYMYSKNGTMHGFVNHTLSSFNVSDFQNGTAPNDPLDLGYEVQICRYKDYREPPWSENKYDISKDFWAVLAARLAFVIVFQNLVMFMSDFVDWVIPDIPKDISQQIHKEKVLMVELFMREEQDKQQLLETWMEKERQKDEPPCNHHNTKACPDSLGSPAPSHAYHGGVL
Chain of UniProt Q13233 (whole entry, looked up): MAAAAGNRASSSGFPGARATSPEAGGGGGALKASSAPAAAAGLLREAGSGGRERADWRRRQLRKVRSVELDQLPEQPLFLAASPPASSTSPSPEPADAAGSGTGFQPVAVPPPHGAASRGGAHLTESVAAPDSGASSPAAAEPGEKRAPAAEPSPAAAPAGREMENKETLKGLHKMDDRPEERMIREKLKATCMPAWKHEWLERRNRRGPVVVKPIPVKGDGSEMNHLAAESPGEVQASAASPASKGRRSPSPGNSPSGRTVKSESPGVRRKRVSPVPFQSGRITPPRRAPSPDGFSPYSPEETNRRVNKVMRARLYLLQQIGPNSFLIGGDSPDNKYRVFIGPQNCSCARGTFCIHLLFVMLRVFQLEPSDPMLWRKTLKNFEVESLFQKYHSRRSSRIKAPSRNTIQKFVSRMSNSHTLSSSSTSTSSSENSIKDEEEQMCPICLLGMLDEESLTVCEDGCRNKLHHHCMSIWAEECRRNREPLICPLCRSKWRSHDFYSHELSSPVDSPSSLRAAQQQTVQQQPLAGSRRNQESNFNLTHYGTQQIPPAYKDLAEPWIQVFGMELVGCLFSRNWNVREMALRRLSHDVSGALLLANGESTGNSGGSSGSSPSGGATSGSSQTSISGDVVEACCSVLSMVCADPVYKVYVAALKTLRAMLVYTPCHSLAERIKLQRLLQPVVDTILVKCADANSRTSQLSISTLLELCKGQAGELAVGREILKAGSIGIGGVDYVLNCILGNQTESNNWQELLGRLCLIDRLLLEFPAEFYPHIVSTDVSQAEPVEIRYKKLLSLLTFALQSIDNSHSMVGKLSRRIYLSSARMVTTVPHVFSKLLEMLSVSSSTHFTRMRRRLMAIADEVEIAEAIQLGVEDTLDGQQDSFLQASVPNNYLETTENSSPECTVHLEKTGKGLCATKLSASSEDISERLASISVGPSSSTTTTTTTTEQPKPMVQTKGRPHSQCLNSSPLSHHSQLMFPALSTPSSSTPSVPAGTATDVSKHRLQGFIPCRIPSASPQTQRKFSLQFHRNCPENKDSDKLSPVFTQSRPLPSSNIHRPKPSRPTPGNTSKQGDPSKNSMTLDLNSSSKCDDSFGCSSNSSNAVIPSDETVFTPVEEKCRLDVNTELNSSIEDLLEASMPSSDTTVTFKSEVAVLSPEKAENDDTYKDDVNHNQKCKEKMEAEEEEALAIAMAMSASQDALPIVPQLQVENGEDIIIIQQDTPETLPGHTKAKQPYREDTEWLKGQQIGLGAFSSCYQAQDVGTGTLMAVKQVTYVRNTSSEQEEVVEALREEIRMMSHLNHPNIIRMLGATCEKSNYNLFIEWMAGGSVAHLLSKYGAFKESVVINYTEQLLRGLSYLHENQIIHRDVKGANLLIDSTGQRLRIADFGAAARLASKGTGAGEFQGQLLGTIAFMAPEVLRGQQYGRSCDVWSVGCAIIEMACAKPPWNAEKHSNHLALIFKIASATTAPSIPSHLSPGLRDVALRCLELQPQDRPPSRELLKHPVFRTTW
Chain of UniProt Q9UKI8 (whole entry, looked up): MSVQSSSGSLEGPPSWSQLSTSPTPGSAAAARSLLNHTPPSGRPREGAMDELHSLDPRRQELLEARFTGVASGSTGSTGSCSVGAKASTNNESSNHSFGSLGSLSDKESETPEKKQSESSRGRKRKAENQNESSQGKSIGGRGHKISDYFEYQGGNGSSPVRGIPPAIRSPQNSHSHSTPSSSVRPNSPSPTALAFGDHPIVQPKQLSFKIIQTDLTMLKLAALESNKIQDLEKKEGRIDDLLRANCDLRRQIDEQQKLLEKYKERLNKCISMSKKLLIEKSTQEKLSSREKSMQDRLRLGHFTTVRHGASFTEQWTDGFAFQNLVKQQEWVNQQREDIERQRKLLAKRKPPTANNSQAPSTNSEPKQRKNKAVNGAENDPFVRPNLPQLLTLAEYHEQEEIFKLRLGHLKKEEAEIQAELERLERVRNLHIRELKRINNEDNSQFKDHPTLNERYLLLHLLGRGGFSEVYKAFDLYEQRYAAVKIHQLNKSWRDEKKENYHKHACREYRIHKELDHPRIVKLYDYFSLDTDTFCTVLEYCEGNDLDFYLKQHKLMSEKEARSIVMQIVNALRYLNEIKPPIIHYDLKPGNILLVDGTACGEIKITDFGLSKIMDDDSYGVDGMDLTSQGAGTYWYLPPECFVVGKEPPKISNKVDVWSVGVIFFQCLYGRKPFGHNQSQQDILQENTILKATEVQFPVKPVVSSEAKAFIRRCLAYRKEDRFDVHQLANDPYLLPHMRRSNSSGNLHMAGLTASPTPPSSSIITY
Chain of UniProt O43353 (whole entry, looked up): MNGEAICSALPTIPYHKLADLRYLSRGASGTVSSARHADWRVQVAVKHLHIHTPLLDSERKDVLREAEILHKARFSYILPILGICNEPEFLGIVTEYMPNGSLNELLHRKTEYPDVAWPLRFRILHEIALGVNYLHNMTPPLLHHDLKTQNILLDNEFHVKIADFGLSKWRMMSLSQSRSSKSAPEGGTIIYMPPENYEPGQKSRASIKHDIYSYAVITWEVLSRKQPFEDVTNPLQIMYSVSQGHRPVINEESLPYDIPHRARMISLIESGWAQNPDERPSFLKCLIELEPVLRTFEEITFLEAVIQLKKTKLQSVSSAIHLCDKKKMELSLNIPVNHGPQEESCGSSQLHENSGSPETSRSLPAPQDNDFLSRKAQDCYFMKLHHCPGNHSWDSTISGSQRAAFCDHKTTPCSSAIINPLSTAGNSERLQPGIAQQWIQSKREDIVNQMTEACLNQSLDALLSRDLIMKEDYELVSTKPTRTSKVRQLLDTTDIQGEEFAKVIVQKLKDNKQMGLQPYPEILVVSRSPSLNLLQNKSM

Set 1
Organism: Sarcocystis neurona
Observed: parasite activity
Concentration: 10 µM
Time: 96 h
SMILES | activity class
C[n+]1ccccc1/C=N/O | inactive
CCCCc1nc(Cl)c(CO)n1Cc1ccc(-c2ccccc2-c2nn[nH]n2)cc1 | inactive
CC(C)(S)[C@@H](N)C(=O)O | inactive
CO[C@H]1/C=C/O[C@@]2(C)Oc3c(C)c(O)c4c(O)c(c5c(nc6cc(C)ccn65)c4c3C2=O)NC(=O)/C(C)=C\C=C\[C@H](C)[C@H](O)[C@@H](C)[C@@H](O)[C@@H](C)[C@H](OC(C)=O)[C@@H]1C | inactive

Set 2
SMILES: CCCCN(CCCC)C(=O)CN1C[C@H](c2cc(OC)c3c(c2)OCO3)[C@@H](C(=O)O)[C@@H]1CC(C)(C)CCC
Observed: cell-free assay
Technique: competition with immobilised ligand
Concentration: 1 µM
target | remaining binding [%]
GRK7 (Homo sapiens, UniProt Q8WTQ7) | 98.3
STK17A (Homo sapiens, UniProt Q9UEE5) | 100
RET (Homo sapiens, UniProt P07949, V804L) | 100
MAPK3 (Homo sapiens, UniProt P27361) | 100
IRAK4 (Homo sapiens, UniProt Q9NWZ3) | 67.5
ERBB2 (Homo sapiens, UniProt P04626) | 95.6
MAST1 (Homo sapiens, UniProt Q9Y2H9) | 100
MAP3K10 (Homo sapiens, UniProt Q02779) | 97
MAP3K1 (Homo sapiens, UniProt Q13233) | 100
Mast/stem cell growth factor receptor Kit, autoinhibited (KIT, Homo sapiens, UniProt P10721) | 92.3
WEE2 (Homo sapiens, UniProt P0C1S8) | 100
TLK1 (Homo sapiens, UniProt Q9UKI8) | 100
RIPK2 (Homo sapiens, UniProt O43353) | 100
STK32C (Homo sapiens, UniProt Q86UX6) | 100
PIK3CA (Homo sapiens, UniProt P42336, E545A) | 89.8
EPHA3 (Homo sapiens, UniProt P29320) | 100

Set 3
Host: mouse
Medium: microsomes or S9
Concentration: 2 µM
Time: 0.5 h
Compound | remaining compound
Cc1cnn(CCNC(C)C(=O)Nc2sccc2C(N)=O)c1 (centres unmarked) | 70.1%
COc1ccc(OC)c(NC(=O)C2C3CC4OC(=O)C2C4C3)c1 (centres unmarked) | 73%
CC(C)(C)OC(=O)NC(CC(=O)N1CCCCN1)Cc1ccccc1F (centres unmarked) | 0.988%
COc1ccc(Sc2nn(S(C)(=O)=O)c3ccccc23)cc1OC | 4.18%

Set 4
SMILES: C=CCc1ccc(O)c(-c2ccc(O)c(CC=C)c2)c1
Observed: chloride current
Technique: whole-cell voltage clamp
target | assay | setting | IC50 [µM]
Anoctamin-1 (ANO1, Homo sapiens, UniProt Q5XXA6, del476-501/F628I) | inhibitor | mutant F602I at 100 mV, with: 300 nM Ca2+ | 9.86
Anoctamin-1 (ANO1, Homo sapiens, UniProt Q5XXA6, del476-501/F807Y) | inhibitor | 60 mV holding voltage | 10.6
Anoctamin-1 (ANO1, Homo sapiens, UniProt Q5XXA6, del476-501/R561A) |  | membrane voltage -40 mV | 6.57
Anoctamin-1 (ANO1, Homo sapiens, UniProt Q5XXA6, del476-501/F807W) | inhibitor | 80 mV holding voltage | 10.8

Set 5
Cell line: mouse MPNST tumor cells
Technique: high-content nuclear imaging
Item: cell number
Concentration: 10 µM
Time: 12 h
Notes: mean of 2 replicates
Reference: plate mean
Direction: higher = more cells
SMILES | nuclei count
NNC(=O)c1ccncc1 | 1.23 z-score and 2.24 z-score
CC(C)(Cc1ccccc1)NCC(O)c1ccc(O)c(NS(C)(=O)=O)c1 (centres unmarked) | 2.3 z-score
Clc1cccc(Cl)c1NC1=NCCN1 | 2.15 z-score

Mixed results
SMILES | cell line | assay | setting | quantity | result
CC(C)(C)c1cnc(CSc2cnc(NC(=O)C3CCN(CCCCCSc4cccc5c4CN(C4CCC(=O)NC4=O)C5=O)CC3)s2)o1 (centres unmarked) | HuT78 | cell growth or viability, trypan blue | 0.1 µM, 48 h | viability | 13.5%
